Assay results pooled from the literature.
Every numbered part comes from another study and shows a few of its results, in no order. Changes are numbered by the printed parent chain.

Sample 1
Substance: PhoQ, residues 284 288 289 292 302 303 SNGLAW
Method: Sort-seq
Refers to: YFP reporter
Sample: E. coli
Setting: PhoQ-PhoP variant library
Together with: 10 µM Mg2+
Relative to: high Mg2+ state
Direction: higher = stronger signaling
target | fold induction
PhoP, residues 12 14 15 18 19 LFHKL (Escherichia coli, UniProt P23836) | 4.76
PhoP, residues 12 14 15 18 19 QQAYL (Escherichia coli, UniProt P23836) | 8.65
PhoP, residues 12 14 15 18 19 GMGLL (Escherichia coli, UniProt P23836) | 13.5

Sample 2
Target: Ras GTPase-activating protein-binding protein 1, full length (G3BP1, Homo sapiens, UniProt Q13283)
UniProt Q13283, sequence (whole entry, looked up): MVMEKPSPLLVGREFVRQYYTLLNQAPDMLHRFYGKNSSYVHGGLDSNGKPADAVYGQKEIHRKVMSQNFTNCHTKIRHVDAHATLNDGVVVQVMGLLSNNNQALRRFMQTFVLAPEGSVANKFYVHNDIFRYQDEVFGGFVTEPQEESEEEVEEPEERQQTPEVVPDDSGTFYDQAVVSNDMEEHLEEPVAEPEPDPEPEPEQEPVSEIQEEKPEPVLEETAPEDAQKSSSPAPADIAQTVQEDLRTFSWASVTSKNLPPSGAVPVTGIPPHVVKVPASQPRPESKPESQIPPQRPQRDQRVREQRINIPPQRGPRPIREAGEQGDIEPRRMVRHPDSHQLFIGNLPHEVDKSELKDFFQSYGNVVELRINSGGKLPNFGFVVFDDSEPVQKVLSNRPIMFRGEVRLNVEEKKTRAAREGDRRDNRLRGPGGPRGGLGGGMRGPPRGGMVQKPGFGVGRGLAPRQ
Method: RNA Bind-n-Seq
Form: RNA
Sample: in vitro
Concentration: 200 nM
Setting: whole 134-nt RNA, ends assumed
Together with: 150 mM KCl
Relative to: input library
Direction: higher = stronger binding
Constant ends, left off below: GGGAGUUCUACAGUCCGACGAUC … UGGAAUUCUCGGGUGUCAAGG
Strand | log2 enrichment
GAUUCCCUCCACAUGCUGCACGCGCAUCUCGCCCCCAGGGGCACUGCCUGGAAGAUUCAGGAGCCUGGGCGGCCUUCGCUUACUCUCACC | 1.01
CCUGUGCUACACAUCGUAUGUACCGAAUCAAAUUUUUUUAAAUUUUUAAAUUUUUUUAAAAAAGUAUUAUGUUACGCCGUUCGGAUCUGC | -1.05
CAAGUCCUGUGCUACACAUCGUAUGUACCGAAUCGGAAAGGGAAAGGGGAAAGGGAAAGUAUUAUGUUACGCCGUUCGGAUCUGCACUUC | -0.284
UAACUUUAGAGGCGGAUCUGAUGGAUAUGGCAGUGGACGUGGAUUUGGGGAUGGCUAUAAUGGGUAUGGAGGAGGACCUGGAGGUGGCAA | 0.451
AGUCCUGUGCUACACAUCGUAUGUACCGAAUCAAAUUUAAAUUUUUUUAAAUUUAAAAAAGUAUUAUGUUACGCCGUUCGGAUCUGCACU | -1.97
AGUCCUGUGCUACACAUCGUAUGUACCGAAUCGGGUUUGGGUUUGGGUUUUUUUGGGAAAGUAUUAUGUUACGCCGUUCGGAUCUGCACU | -0.168
GCCCAUGCUAAAGUAAGAUUGUCUAACAAAGUUGAAGCCAUUGAUGUGGAAGAGGCCAAACGCCUCCAUCGGGAAGCUCUGAAGCAGUCU | -0.994
UCCUGUGCUACACAUCGUAUGUACCGAAUCGGGGUUUUUGGGGUUUUUUUGGGGAGGGGAAAGUAUUAUGUUACGCCGUUCGGAUCUGCA | 0.698
UAACUUUAGAGGAGGAUCUGAUGGAUAUGGCAGUGGACGUGGAUUUGGGGAUGGUUAUAAUGGGUAUGGAGGAGGACCUGGAGGUGGCAA | 0.239

Sample 3
Target: Histone acetyltransferase KAT6A, winged helix 1, GST fusion (KAT6A, Homo sapiens, UniProt Q92794, residues 1-85)
Method: protein binding microarray
Form: double-stranded DNA, one strand shown
Sample: in vitro
Concentration: not given
Setting: 8-mer, flanks averaged, mean of 2 arrays, mostly near background
Relative to: not given
Direction: higher = stronger binding
Construct (chain): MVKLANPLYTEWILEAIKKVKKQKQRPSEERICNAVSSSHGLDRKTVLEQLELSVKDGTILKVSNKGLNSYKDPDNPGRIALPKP
Strand | E-score
TACGGTAA | 0.227
CTATTCAA | -0.138
CGGGCTGA | 0.236
GCACTCAC | -0.0433
AACATCTT | -0.179
CTAGTAGC | 0.0855
ATGCAAGA | -0.217
GCATCTGA | -0.0277
AACCAAAT | -0.171

Sample 4
Target: CCNE2, cyclin fold, Cln2 fusion (human)
Method: yeast growth competition, sequencing
Sample: yeast
Setting: strong parent motif
Relative to: not given
Direction: higher = stronger binding
Starting sequence: CDKN1B docking peptide (human); PSACRNLFGPVDH
Change | normalised enrichment score
A3K | 0.209
P10H | 0.888
R5S | -0.175
L7Q | -0.0179
R5A L7A | -0.292
A3I | 1.36
D12G | 1.53
V11I | 1.76
L7N | -0.155

Excerpt of the above (sample 2):
Strand | log2 enrichment
GAUUCCCUCCACAUGCUGCACGCGCAUCUCGCCCCCAGGGGCACUGCCUGGAAGAUUCAGGAGCCUGGGCGGCCUUCGCUUACUCUCACC | 1.01
CCUGUGCUACACAUCGUAUGUACCGAAUCAAAUUUUUUUAAAUUUUUAAAUUUUUUUAAAAAAGUAUUAUGUUACGCCGUUCGGAUCUGC | -1.05
CAAGUCCUGUGCUACACAUCGUAUGUACCGAAUCGGAAAGGGAAAGGGGAAAGGGAAAGUAUUAUGUUACGCCGUUCGGAUCUGCACUUC | -0.284
UAACUUUAGAGGCGGAUCUGAUGGAUAUGGCAGUGGACGUGGAUUUGGGGAUGGCUAUAAUGGGUAUGGAGGAGGACCUGGAGGUGGCAA | 0.451
